Experimental data gathered from unrelated publications.
Each numbered part is a random draw from the data of one study; scales do not carry over between parts.

Study 1
Target: Ras GTPase-activating protein-binding protein 1, C-terminal RGG region (G3BP1, Homo sapiens, UniProt Q13283)
Sequence of UniProt Q13283 (whole entry, looked up): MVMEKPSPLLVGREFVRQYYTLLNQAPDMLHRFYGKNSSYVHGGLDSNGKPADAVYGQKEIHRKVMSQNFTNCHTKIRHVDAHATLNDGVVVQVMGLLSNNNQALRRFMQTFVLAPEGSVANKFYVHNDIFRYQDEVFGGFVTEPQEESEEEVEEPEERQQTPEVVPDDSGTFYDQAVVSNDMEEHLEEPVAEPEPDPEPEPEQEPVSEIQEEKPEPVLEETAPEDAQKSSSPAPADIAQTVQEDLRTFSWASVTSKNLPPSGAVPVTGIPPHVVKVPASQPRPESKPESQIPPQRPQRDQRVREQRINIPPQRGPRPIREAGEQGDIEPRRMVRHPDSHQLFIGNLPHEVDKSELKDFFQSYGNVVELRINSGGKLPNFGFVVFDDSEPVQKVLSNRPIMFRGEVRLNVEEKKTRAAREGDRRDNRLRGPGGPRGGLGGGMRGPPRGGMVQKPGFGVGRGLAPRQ
Technique: RNA Bind-n-Seq
Molecule type: RNA
Sample: in vitro
Tested at: 1 µM
Setting: whole 134-nt RNA, ends assumed
With: 150 mM KCl
Baseline: input library
Direction: higher = stronger binding
Endpoint: log2 enrichment
Shared flanks, not repeated: GGGAGUUCUACAGUCCGACGAUC … UGGAAUUCUCGGGUGUCAAGG
GUCCUGUGCUACACAUCGUAUGUACCGAAUCGGGGAGGGGAAAAAAAGGGGUUUGGGGAAAGUAUUAUGUUACGCCGUUCGGAUCUGCAC: 2.15
CCUCAAGUCCUGUGCUACACAUCGUAUGUACCGAAUCGGGGAGGGGAGGAGGAAAGUAUUAUGUUACGCCGUUCGGAUCUGCACUUCCAG: -0.643
CUCAAGUCCUGUGCUACACAUCGUAUGUACCGAAUCGGGAAAGGGAGGGUGGGAAAGUAUUAUGUUACGCCGUUCGGAUCUGCACUUCCA: 1.94
AGUCCUGUGCUACACAUCGUAUGUACCGAAUCGGCCCCCGGCCCCCGGGGCCCCCGGAAAGUAUUAUGUUACGCCGUUCGGAUCUGCACU: -1.5
CCUCAAGUCCUGUGCUACACAUCGUAUGUACCGAAUCGGUUUUUGGUGGUGGAAAGUAUUAUGUUACGCCGUUCGGAUCUGCACUUCCAG: -0.675
UCUUCCGUGACAUUUCAUUUGGGGAACAACUUUUCUCUUUACAGGCCCGAGUGACUAAGGGAUGUACCAUUGUUAAGCCUUUCAACCUGU: 0.416
GUCCUGUGCUACACAUCGUAUGUACCGAAUCGGGGAAAAAGGGGAAAAAGGGAAAAAGGAAAGUAUUAUGUUACGCCGUUCGGAUCUGCA: -1.18
UUCCCUGUACCGGCAGAGUUCACAAACACAUUUGAAGAGGCUUUUUCUCAGGAUUCUUAACCUUCCCAAAGGAAGUCCCAUGGAUGGGUU: -1.68
UUCCAGGCUCAAGCACGGACAUCAGUGAGGACUGGGAGAAAGACUUUGACUUGGACAUGACUGAAGAGGAGGUGCAGAUGGCACUUUCCA: -0.252
UCAAGUCCUGUGCUACACAUCGUAUGUACCGAAUCGGGAGGGAGGGAAAAAGGGAAAGUAUUAUGUUACGCCGUUCGGAUCUGCACUUCC: 1.7

Study 2
Target: Sal-like protein 4, full length isoform B (SALL4, Homo sapiens, UniProt Q9UJQ4-2, residues 1-616)
Technique: universal PBM
Molecule type: double-stranded DNA, one strand shown
Sample: in vitro
Tested at: not given
Setting: 8-mer, flanks averaged, mean of replicates
Direction: higher = stronger binding
Endpoint: E-score
CCACTATC: -0.114
TCCGACCA: -0.174
CTAGGTTA: 0.115
AATGACTC: 0.0599
AAAGACAA: 0.212
GGGCGAAC: -0.202
AATAGGCT: 0.0584
AGCACACT: 0.141
AAGTCTGC: -0.0649
AAGCTTGT: 0.0868
GAAGAGCA: -0.0141
GGTGGAGA: -0.288
GATGTACA: 0.204
GACGGGTA: -0.116
CAAGGGGA: -0.142
AATTACAG: 0.255
GTCCACGA: -0.216
AAAAGGCG: 0.0188
AAAGAAAC: 0.0823
AACTTTGA: 0.109
ACGTACCA: 0.0208

Study 3
Target: PABPC1L2, full length, GST fusion (mouse, UniProt A0ABA7IW68)
Technique: RNAcompete
Molecule type: RNA
Sample: in vitro
Tested at: 20 nM
Setting: 7-mer, probes averaged, single round
Baseline: mean of 7-mers
Direction: higher = stronger binding
Endpoint: 7-mer Z-score
Construct (chain): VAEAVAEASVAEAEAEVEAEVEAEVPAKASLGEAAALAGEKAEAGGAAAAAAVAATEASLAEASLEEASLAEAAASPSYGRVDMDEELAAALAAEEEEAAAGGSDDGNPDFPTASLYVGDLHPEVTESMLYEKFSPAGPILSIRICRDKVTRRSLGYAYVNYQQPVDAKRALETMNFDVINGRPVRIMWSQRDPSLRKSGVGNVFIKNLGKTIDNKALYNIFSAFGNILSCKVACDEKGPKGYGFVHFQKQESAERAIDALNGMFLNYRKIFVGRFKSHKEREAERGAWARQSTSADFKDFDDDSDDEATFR
UGCUAAA: 0.84
UUCUGUU: -0.443
ACGAAAA: 3.77
UCACUCG: -0.26
CAGUAGC: -0.17
UUUCGUC: -0.612
UUGUUCA: -0.398
GGAACAA: 0.702
CGAUCCU: -0.38
ACAAGAA: 0.379
GGCCCUA: -0.199
CCAAUAG: -0.0192
AACCUGU: 0.00979
AAUCAGC: 0.204
UUGGGUC: 0.037
UUCUUGU: -0.431
AUACAAU: 0.349
GUCACAC: -0.0899
CUGGACA: -0.0736
AAUGACC: 0.113
GAUCUGG: -0.0971
AUCGGUG: 0.119
GACCCAA: 0.0243
GUUGAAU: -0.164
GCUUGAU: -0.171

Study 4
Target: TAR DNA-binding protein 43, full length, His tag (TARDBP, Homo sapiens, UniProt Q13148, residues 1-414)
Technique: RNA Bind-n-Seq
Molecule type: RNA
Sample: in vitro
Tested at: 20 nM
Setting: 6-mer, flanks averaged, single round
With: 150 mM LiCl
Baseline: input library
Direction: higher = stronger binding
Endpoint: 6-mer enrichment (R)
UUUUGA: 1.14
UAGUGU: 1.41
UCGUGU: 1.14
GCUUGC: 0.962
GUUACU: 0.922
UACCGU: 0.861
AUCACC: 0.879
CUCCGC: 0.93
UCACCU: 0.889
AAAGUU: 0.871
CUGCGU: 1.01
GUCACU: 0.883
GUUCAC: 0.87
GGUGGG: 1.57
ACUCAA: 0.848
AUGGAA: 0.964

Excerpt of the above (study 2):
GATGTACA: 0.204
GACGGGTA: -0.116
CAAGGGGA: -0.142
AATTACAG: 0.255
GTCCACGA: -0.216
AAAAGGCG: 0.0188
AAAGAAAC: 0.0823
